Results pooled from the literature.
Each numbered part is a random draw from the data of one study; scales do not carry over between parts. “And” joins repeats or separate records; there may be more than shown.

Sample 1 — method: Spec-seq; molecule type: double-stranded DNA, one strand shown; matrix: in vitro; tested at: not given; notes: whole probe, mean of replicates; relative to: not given; direction: lower = stronger binding; all sequences stand within: GAGTCGTCTCGTCAGCACA … CCGTAGAGCACTCAGGTC
Target: POU, POU domain (Salpingoeca helianthica)
Construct (chain): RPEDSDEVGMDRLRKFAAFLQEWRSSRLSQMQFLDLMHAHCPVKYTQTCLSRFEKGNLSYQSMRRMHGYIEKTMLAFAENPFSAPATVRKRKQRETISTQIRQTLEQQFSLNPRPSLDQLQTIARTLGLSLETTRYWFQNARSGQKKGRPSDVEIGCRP
Strand | relative binding energy
TCCAGAT | 1.32 ln ratio
GCTTAAT | 0.539 ln ratio
TGCCGAA | 1.11 ln ratio
TGTCGAT | 1.29 ln ratio
TGCGCAC | 1.55 ln ratio
TGCTTGC | 1.18 ln ratio
TACGGAT | 1.17 ln ratio
TGCCGCT | 1.08 ln ratio

Sample 2 — method: universal PBM; molecule type: double-stranded DNA, one strand shown; matrix: in vitro; tested at: not given; direction: higher = stronger binding
Target: Sal-like protein 4, full length isoform B (SALL4, Homo sapiens, UniProt Q9UJQ4-2, residues 1-616)
Notes: 8-mer, flanks averaged, mean of replicates
Residues (chain): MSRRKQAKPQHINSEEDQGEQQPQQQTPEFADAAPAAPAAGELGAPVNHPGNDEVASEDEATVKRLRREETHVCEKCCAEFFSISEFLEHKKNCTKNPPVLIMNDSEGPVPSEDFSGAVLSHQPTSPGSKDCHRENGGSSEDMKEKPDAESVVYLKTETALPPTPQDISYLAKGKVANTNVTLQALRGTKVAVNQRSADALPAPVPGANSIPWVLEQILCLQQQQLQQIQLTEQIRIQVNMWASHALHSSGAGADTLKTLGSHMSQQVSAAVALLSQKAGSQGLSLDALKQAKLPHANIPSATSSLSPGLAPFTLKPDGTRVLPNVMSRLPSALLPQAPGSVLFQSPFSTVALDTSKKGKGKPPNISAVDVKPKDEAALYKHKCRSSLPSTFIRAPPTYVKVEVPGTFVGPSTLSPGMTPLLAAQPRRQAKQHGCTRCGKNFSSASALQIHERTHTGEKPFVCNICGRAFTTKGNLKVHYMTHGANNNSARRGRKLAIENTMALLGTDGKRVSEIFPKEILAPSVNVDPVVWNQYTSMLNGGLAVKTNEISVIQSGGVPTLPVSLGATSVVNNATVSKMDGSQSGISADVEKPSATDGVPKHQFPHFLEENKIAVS
Strand | E-score
CATGCAGA | -0.0602
CGTTGTCA | -0.0775
AGACCAAT | 0.0899
ACTACGCG | -0.117
ATCTAATG | 0.0791
GGCATCTA | 0.00085
AGCAGTTA | 0.117
ATTACGCA | 0.187

Mixed results
Molecule | target | test | system | setting | scale | quantity | value
PhoQ, residues 284 288 289 292 302 303 ASSHFY | PhoP, residues 12 14 15 18 19 LWHCS (Escherichia coli, UniProt P23836) | Sort-seq, measured: YFP reporter | E. coli | PhoQ-PhoP variant library, together with: 10 µM Mg2+ | relative to: high Mg2+ state, higher = stronger signaling | fold induction | 12.1 and 9.44
O=c1cc(-c2cccc3c2Sc2ccccc2S3)oc(N2CCOCC2)c1 | PRKCG (Homo sapiens, UniProt P05129) | enzyme activity, inhibitor | – | 0.5 µM | relative to: control | remaining activity | 96.9%
